Results collected from several papers.
Numbered parts are unrelated; each lists some results of a single study.

Sample 1
Cell line: yeast with cyclin E2-Cln2 chimera
Observed: cell growth
Action: binder
Technique: competitive growth deep sequencing
Molecule type: peptide
Tested at: concentration not given
Setting: peptide tiling library
Reading: direction not given
| Sequence | growth enrichment score |
| --- | --- |
| TRRRLFVENDSP | 1.31 |
| DGCSPIKNWSPMRL | 0.46 |
| PQWPCGKHKRVLIFAS | 0.141 |
| SGYLTDENEVGFRG | 0.295 |
| SDSTVTKLDFDLEP | 0.357 |
| RNRGPKLNAMLRLGVL | 0.171 |
| VLPGGVPSPGASLTSM | -0.733 |
| GAEELEDLVHFSVSEL | 1.14 |
| VLVRTSACRSLFGPVD | 0.749 |
| FQDSGYNELKSCSFDN | 0.321 |
| TSPGPVLLHPSPSTTQ | -0.0374 |
| QNPCGSKACRRLFGPV | 1.26 |
| VRDLSYRLVFLACCVA | -0.0985 |
| NNIRKALSFDNRGEEH | 0.38 |
| LENIEPLQVSFAVLSS | -0.171 |
| AEHPKPSACRNLFGPV | 1.29 |
| KDDDKAWEYEERDRRS | 0.454 |
| NFETPEAETPIRSPFK | 0.00814 |

Sample 2
Target: Prothrombin, mature alpha-thrombin (F2, Homo sapiens, UniProt P00734)
Technique: aptamer microarray, sandwich
Molecule type: DNA with 2'F-ANA
Medium: in vitro
Tested at: 200 nM
Setting: whole 15-mer aptamer, many near background
Added: Cy3 exosite-II aptamer, 400 nM
Reading: higher = stronger binding
Oligonucleotide: GGTTGGTGTGGTTGG
| Modification | mean fluorescence intensity [a.u.] |
| --- | --- |
| 2'F-ANA at 3 4 8 10 12 13 14 15 | 154 |
| 2'F-ANA at 1 3 4 5 6 9 10 11 12 | 53.8 |
| 2'F-ANA at 1 4 6 7 8 9 | 140 |
| 2'F-ANA at 2 3 4 8 11 13 | 496 |
| 2'F-ANA at 1 2 3 4 5 6 10 12 13 14 15 | 63 |
| 2'F-ANA at 2 3 7 9 11 | 653 |
| 2'F-ANA at 1 3 5 6 7 8 11 12 13 | 92.2 |
| 2'F-ANA at 1 3 6 8 9 10 11 12 | 127 |
| 2'F-ANA at 1 2 3 5 9 10 11 12 13 15 | 79.2 |
| 2'F-ANA at 1 4 5 7 10 11 12 13 15 | 47.4 |
| 2'F-ANA at 8 9 14 15 | 191 |
| 2'F-ANA at 4 11 13 15 | 199 |
| 2'F-ANA at 1 3 4 6 9 11 12 13 14 15 | 66.4 |
| 2'F-ANA at 5 6 8 11 12 | 136 |
| 2'F-ANA at 1 2 7 13 14 15 | 54.8 |
| 2'F-ANA at 1 3 4 5 6 8 10 12 14 | 138 |
| 2'F-ANA at 7 9 10 12 13 14 | 126 |
| 2'F-ANA at 2 4 5 8 9 11 12 13 | 80.5 |
| 2'F-ANA at 1 2 3 4 5 9 11 13 15 | 57.6 |
| 2'F-ANA at 1 3 6 7 8 11 13 | 349 |
| 2'F-ANA at 2 3 4 5 7 8 9 12 13 15 | 120 |

Sample 3
Target: RNA binding protein fox-1 homolog 2, RRM domain, GST-SBP tag (RBFOX2, Homo sapiens, UniProt O43251-10, residues 100-194)
Technique: RNA Bind-n-Seq
Molecule type: RNA
Medium: in vitro
Tested at: 365 nM
Setting: natural RNA segment, single round, ends assumed
Relative to: no-protein control
Reading: higher = stronger binding
Constant ends, left off below: GGGAGUUCUACAGUCCGACGAUC … UGGAAUUCUCGGGUGCCAA
Residues (chain): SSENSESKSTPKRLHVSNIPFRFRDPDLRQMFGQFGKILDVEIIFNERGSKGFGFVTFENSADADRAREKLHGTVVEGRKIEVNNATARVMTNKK
| Oligonucleotide | RBNS enrichment (R) |
| --- | --- |
| UGUGGGACUGUCAUGGCAUUUAGUUCAGAGUGGAGGGGCUUUGGCCUGAAAUAAAAUGCAAGUAUUUAAGAUUGUUGUUGCAAUUUGUGUCUAACAAGCUGUAGCAGAGA | 0.819 |
| GCUGGAUGAAGCUGCCUGGCCAGCGUGGAGAUGUCCAUGGCCGGCACCGCUGGGACGGAUUCAGUGCCAGGCUGGGCGCAAGGCCCCUUACCAGUGGGCUGCUGCUCUGU | 0.305 |
| GGGCUACUGUAUACAGUGUACAAUGUGUAUUUCUUCAACCAUAUAUUUUAAAAAGACGUACAUAGAAACUUAGGCACUUUGCUAUUUCUUUUCUAAACUAUCAAAAACUC | 0.583 |
| AUUUAAUUCCAAAGGUGAGAGUUGGAGUGAGAUGUCUUCCAUAUCUAUACCUUUGUGCACAGUUGAAUGGGAACUGUUUGGGUUUAGGGCAUCUUAGAGUUGAUUGAUGG | 6.03 |
| GGAGAUCUGAGGUCACUGCUGUGAGCUGGGAGAACUGCUGUGUACCUCUUGCUGCCAGCACCCAACAGCCUUGCCGUGGGGACCUUGGAAACCUGGCUUUGCUCUGGACA | 0.291 |
| AAAGCUUAUAUAUUUGUAGCAAAGUUAUUCUUAAAUAUGAAUUAUGUUAUAACUUAGUGACUUUUGAUUUCUAGAGGUGUAAAUGAGGAUGUAAAAAUUGAUAUAGUUGU | 0.806 |
| UUAAAGAUAAUGCUUUUUAUUUACACGAAUAUAUCAAGUAGUACCCUCCUAUUGUAUUCACUUCUUCUAUUUUCUUAGAAUUCUUGCAACUAAUGAUUGUUCCCCUCCUU | 0.577 |
| UCCCCUCUGACAGACCGAUAGCUGCAUCAGGCUGUUGGGUGGAAUGGGAGGCAAGGGAAUAGGAAAGCCAAAGGCCAAGCAGGAACUCUGUGCCUGCUCUCUGCUCCUGU | 0.407 |

Sample 4
Target: Fragile X messenger ribonucleoprotein 1, C-terminal low-complexity region (Fmr1, Mus musculus, UniProt P35922)
Technique: RNA Bind-n-Seq
Molecule type: RNA
Medium: in vitro
Tested at: 200 nM
Setting: whole 134-nt RNA, ends assumed
Added: 150 mM LiCl
Relative to: input library
Reading: higher = stronger binding
Each molecule: 7-deaza-guanosine replaces G
Constant ends, left off below: GGGAGUUCUACAGUCCGACGAUC … UGGAAUUCUCGGGUGUCAAGG
| Oligonucleotide | log2 enrichment |
| --- | --- |
| UAACUUUAGAGGAGGAUCUGAUGGAUAUGGCAGUGGAUGUGGAUUUGGGGAUGGCUAUAAUGGGUAUGGAGGAGGACCUGGAGGUGGCAA | 1.07 |
| UCAUCCUUUUUAAAUUUUUUUUUUUUUUUUGAGACGGUCUCACUCUCACCCAGGCUGGAUUGCAGUGGUGUGAUCUCGACCAACUGCAAC | 0.56 |
| CCUCAAGUCCUGUGCUACACAUCGUAUGUACCGAAUCGGAGGAGGGGAGGGGAAAGUAUUAUGUUACGCCGUUCGGAUCUGCACUUCCAG | -0.174 |
| CUCAAGUCCUGUGCUACACAUCGUAUGUACCGAAUCGGGGAGGGGAGGGGAGGAAAGUAUUAUGUUACGCCGUUCGGAUCUGCACUUCCA | -0.279 |
| CUCAAGUCCUGUGCUACACAUCGUAUGUACCGAAUCGGGUGGGUGGGAAAGGGAAAGUAUUAUGUUACGCCGUUCGGAUCUGCACUUCCA | 0.136 |
| CCUGUGCUACACAUCGUAUGUACCGAAUCGGGAAAAAAAGGGUUUUUGGGUUUUUUUGGGAAAGUAUUAUGUUACGCCGUUCGGAUCUGC | -2.54 |
| UGGCCCUGGUGGCAUGCGGGGAGGAAGAGGUGGCCUCAUGGAUCGUGGUCGUCCCGGUGGAAUGUUCAGAGGUGGCCGUGGUGGAGACAG | 0.119 |
| CCUGUGCUACACAUCGUAUGUACCGAAUCAAAUUUUUUUAAAUUUUUAAAUUUUUUUAAAAAAGUAUUAUGUUACGCCGUUCGGAUCUGC | -3.08 |

Further values, each from its own experiment
| Substance | target | test | test system | conditions | scale | measurement | result |
| --- | --- | --- | --- | --- | --- | --- | --- |
| PhoQ, residues 284 288 289 292 302 303 SVTLVV | PhoP, residues 12 14 15 18 19 SMASL (Escherichia coli, UniProt P23836) | Sort-seq, item: YFP reporter | E. coli | PhoQ-PhoP variant library, added: 10 µM Mg2+ | relative to: high Mg2+ state, higher = stronger signaling | fold induction | 6.6 |

Repeated from above (sample 2):
| Modification | mean fluorescence intensity [a.u.] |
| --- | --- |
| 2'F-ANA at 3 4 8 10 12 13 14 15 | 154 |
| 2'F-ANA at 1 3 4 5 6 9 10 11 12 | 53.8 |
| 2'F-ANA at 1 4 6 7 8 9 | 140 |
| 2'F-ANA at 2 3 4 8 11 13 | 496 |
| 2'F-ANA at 1 2 3 4 5 6 10 12 13 14 15 | 63 |
